Assay results collected from several papers.
Parts stem from different laboratories: compare values within a part only. Substitutions count along the parent as printed.

Set 1 — target: CCNA2, cyclin fold, Cln2 fusion (human); method: yeast growth competition, sequencing; medium: yeast; setting: strong parent motif; relative to: not given; direction: higher = stronger binding
Starting sequence: E2F2 docking peptide (human); LPAKRKLDLEGIG; partner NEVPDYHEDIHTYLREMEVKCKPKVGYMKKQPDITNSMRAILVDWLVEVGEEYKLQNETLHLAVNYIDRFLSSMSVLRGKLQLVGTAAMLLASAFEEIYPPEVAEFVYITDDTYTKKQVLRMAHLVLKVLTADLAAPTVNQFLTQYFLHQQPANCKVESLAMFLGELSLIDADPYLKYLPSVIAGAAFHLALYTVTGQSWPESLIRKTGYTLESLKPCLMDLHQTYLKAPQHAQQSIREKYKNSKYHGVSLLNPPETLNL
| Change | normalised enrichment score |
| --- | --- |
| P2A | 3.42 |
| L9A | 0.676 |
| R5K | 1.68 |
| K6A | 1.88 |
| G13A | 5.03 |
| D8A | 2.29 |
| R5A L7A | 0.263 |
| R5K L9F | 5.75 |
| L7A | -0.015 |

Set 2 — method: DHFR PCA, deep sequencing; medium: yeast; added: (+)-ABA 0.0091 µM; relative to: wild-type fitted maximum; direction: higher = stronger binding
Target: ABI1, truncated, D143A, DHFR fusion (Arabidopsis thaliana)
Setting: methotrexate growth selection, single substitutions
Starting sequence: PYL1, truncated, DHFR fusion (Arabidopsis thaliana); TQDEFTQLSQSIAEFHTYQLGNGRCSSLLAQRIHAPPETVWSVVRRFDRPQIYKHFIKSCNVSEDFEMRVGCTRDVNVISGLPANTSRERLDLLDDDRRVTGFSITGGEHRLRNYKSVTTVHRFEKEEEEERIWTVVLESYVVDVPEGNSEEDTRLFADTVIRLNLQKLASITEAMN; partner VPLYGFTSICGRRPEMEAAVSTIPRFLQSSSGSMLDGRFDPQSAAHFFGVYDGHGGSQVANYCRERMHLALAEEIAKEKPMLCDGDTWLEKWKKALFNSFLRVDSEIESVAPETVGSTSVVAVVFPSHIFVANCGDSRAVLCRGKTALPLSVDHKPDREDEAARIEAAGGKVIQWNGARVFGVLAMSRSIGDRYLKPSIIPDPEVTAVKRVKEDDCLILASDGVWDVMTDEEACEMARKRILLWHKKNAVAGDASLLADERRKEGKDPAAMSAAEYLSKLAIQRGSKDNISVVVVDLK
| Change | relative binding score |
| --- | --- |
| S104V | -4.43% |
| R74P | -5.73% |
| F5N | 0.817% |
| F157P | 0.836% |
| S171T | 40.5% |
| L28C | 7.09% |
| R45M | -5.71% |
| K58Q | 4.96% |
| D65N | 35.3% |
| T17M | 5.56% |
| N77E | 67.3% |
| S150T | 45.7% |
| Q167R | 18.4% |
| E67Q | 28.6% |
| H55G | 0.208% |
| R88M | 1.05% |
| N165C | 2.9% |
| T106K | 0.942% |
| L28M | 14.2% |
| L164N | -0.804% |
| D48R | -0.474% |
| V121W | 1.06% |
| D159I | -5.27% |
| V136W | -5.66% |

Set 3 — method: universal PBM; molecule type: double-stranded DNA, one strand shown; medium: in vitro; concentration: 600 nM; direction: higher = stronger binding
Target: Sal-like protein 4, full length isoform A (SALL4, Homo sapiens, UniProt Q9UJQ4, residues 1-1053)
Sequence of UniProt Q9UJQ4 (whole entry, looked up): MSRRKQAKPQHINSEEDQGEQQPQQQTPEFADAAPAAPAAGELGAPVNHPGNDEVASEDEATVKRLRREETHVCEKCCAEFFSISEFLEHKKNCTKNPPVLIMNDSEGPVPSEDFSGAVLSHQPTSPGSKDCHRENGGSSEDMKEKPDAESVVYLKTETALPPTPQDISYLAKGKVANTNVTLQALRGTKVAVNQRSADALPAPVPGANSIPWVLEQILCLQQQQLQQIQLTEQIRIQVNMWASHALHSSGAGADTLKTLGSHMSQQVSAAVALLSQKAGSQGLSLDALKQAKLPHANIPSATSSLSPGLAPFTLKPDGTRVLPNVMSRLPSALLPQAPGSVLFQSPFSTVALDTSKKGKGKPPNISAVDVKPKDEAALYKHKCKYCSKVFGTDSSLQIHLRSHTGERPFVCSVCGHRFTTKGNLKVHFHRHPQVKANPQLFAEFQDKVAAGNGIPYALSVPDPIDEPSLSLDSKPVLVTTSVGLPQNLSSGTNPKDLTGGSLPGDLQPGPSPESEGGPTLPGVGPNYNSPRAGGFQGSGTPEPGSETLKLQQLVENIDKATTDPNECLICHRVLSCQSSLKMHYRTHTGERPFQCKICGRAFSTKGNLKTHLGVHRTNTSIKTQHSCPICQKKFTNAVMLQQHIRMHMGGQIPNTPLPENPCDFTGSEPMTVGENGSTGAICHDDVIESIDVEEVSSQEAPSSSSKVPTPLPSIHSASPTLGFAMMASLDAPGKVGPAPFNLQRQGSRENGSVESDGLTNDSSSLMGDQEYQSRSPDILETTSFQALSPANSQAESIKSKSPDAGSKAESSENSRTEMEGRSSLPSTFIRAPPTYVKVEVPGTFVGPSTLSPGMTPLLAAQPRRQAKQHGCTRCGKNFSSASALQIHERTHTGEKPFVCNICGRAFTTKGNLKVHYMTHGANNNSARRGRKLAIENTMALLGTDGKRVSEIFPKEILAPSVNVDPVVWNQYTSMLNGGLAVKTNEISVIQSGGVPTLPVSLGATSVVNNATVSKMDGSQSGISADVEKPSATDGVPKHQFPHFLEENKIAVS
Setting: 8-mer, flanks averaged, mean of replicates
| Oligonucleotide | E-score |
| --- | --- |
| AGGCCAAC | -0.222 |
| CCGTTGCC | -0.302 |
| ATGCTCTG | -0.0741 |
| GCGATGCC | -0.299 |
| ACAATTTG | 0.155 |
| CATGTCGC | -0.0812 |
| CCATCAAA | 0.028 |
| ACACCTAT | 0.0873 |
| ATGGGAGG | -0.0452 |
| ATCAGTGC | -0.0288 |
| CGAGTTGC | -0.169 |
| CCACCGCC | -0.288 |
| AGGAGACG | -0.326 |
| AGCCAGTC | -0.145 |
| GTGATTTA | 0.185 |
| GCATTGAA | 0.078 |
| ATCCTAGC | -0.024 |
| CCCTCCGG | -0.4 |
| CAATAGGG | -0.074 |
| GCCCCTAC | -0.177 |

Set 4 — method: RNA Bind-n-Seq; molecule type: RNA; medium: in vitro; concentration: 200 nM; setting: whole 134-nt RNA, ends assumed; added: 150 mM LiCl; relative to: input library; direction: higher = stronger binding; all molecules: 7-deaza-guanosine replaces G
Target: Fragile X messenger ribonucleoprotein 1, C-terminal low-complexity region (Fmr1, Mus musculus, UniProt P35922)
All sequences stand within: GGGAGUUCUACAGUCCGACGAUC … UGGAAUUCUCGGGUGUCAAGG
| Oligonucleotide | log2 enrichment |
| --- | --- |
| AGUCCUGUGCUACACAUCGUAUGUACCGAAUCGGUUUGGAAAAAAAGGAAAAAAAGGAAAGUAUUAUGUUACGCCGUUCGGAUCUGCACU | -2.15 |
| UGUACAAACACUUUCCCAUCCCCCUCAUUAACCGGCUGGAGAAGCACUAUCUGGAUAUCAACACGGUGCUGGAGAAAUGGCAGAAGAGCA | 0.525 |
| UCAAGUCCUGUGCUACACAUCGUAUGUACCGAAUCGGGAGGGAAAAAGGGUGGGAAAGUAUUAUGUUACGCCGUUCGGAUCUGCACUUCC | -1.28 |
| AAGUCCUGUGCUACACAUCGUAUGUACCGAAUCGGUUUGGAAAAAAAGGUUUUUGGAAAGUAUUAUGUUACGCCGUUCGGAUCUGCACUU | -3.04 |
| UCUAUUCAUAAGAACCCCAACACAUCGGAGCCCCAACACCUGUUGGUGAUGAAGGGCGCCCCAGAAAGGAUCCUAGACCGUUGCAGCUCU | 2.06 |
| ACUUUGUCAGAUAUUGCUAGGGACCAGUGAGAUAGAUAAUCCAAAAAUAAUAAUUUGACUUUGGUUGAGUAUGUCAUUACCACAGUGUUA | -2.2 |
| UCCUGUGCUACACAUCGUAUGUACCGAAUCGGGAAAAAAGGGGAAAAAAGGGAAAAAAGGAAAGUAUUAUGUUACGCCGUUCGGAUCUGC | -0.354 |
| CCUGUGCUACACAUCGUAUGUACCGAAUCGGGCCCCCCCGGCCCCCCCGGGCCCCCCCGGGAAAGUAUUAUGUUACGCCGUUCGGAUCUG | 0.752 |

Set 5 — method: RNA Bind-n-Seq; molecule type: RNA; medium: in vitro; concentration: 365 nM; relative to: no-protein control; direction: higher = stronger binding
Target: RNA binding protein fox-1 homolog 2, RRM domain, GST-SBP tag (RBFOX2, Homo sapiens, UniProt O43251-10, residues 100-194)
Setting: natural RNA segment, single round, ends assumed
All sequences stand within: GGGAGUUCUACAGUCCGACGAUC … UGGAAUUCUCGGGUGCCAA
| Oligonucleotide | RBNS enrichment (R) |
| --- | --- |
| UGUAUAAUAUGCUAUUAAUACACAUUAGAUGAUAACAGUUGUUCCAUGAAUGAUUCUAUGAAGCUAUGCAUCUUAGACCUCUUGAGCUGUGAAUUAGCACUAUUUUCUAU | 0.647 |
| UACCGAGUACACAGAGUACCCAAGUGAAGAGAACGUCAUGAGUGUAAGUGCAAAUCAGUGGAAGGAGCGGCAAACUGGGACAUGCAGAAUUGAAUUUGCUCAAAAAAGAU | 0.599 |
| AGAGAAAUGUUUGUCUUUCUGUUGUCUAUACAUCAAAGAAGCCAUUAAAUUGUUUUAUUUCUCAAGAGUUGCAGAUCUCAAGGGAGAUGGAGAGCCAUGAGAAAGUGUUC | 1.07 |
| CUGACCUCCAUUGCUUACCUGCCUGAGUAGCCAGCUGCAUCCAUCUCUCAAAGAUACCUAGCCAGGCUCCUAACCAUGUUCUUCAACCAUUGAUUUUGUUUGAUUUCUGA | 4.04 |
| AGCAGCAGUUCUAUCAGUGGUGCCACUGAAACUGGGUAUAUUUAUGAUUUCUUUCAGCGUUAAAAAGAAACAUAGUGUUGCCCUUUUUCUUAAAGCAUCAGUGAAAUUAU | 0.542 |
| UAACUGCCAUCCCCUUCUGUGAGUUAUGUACGGGGACUUAGACUGUCCUGUGCAGAGGUGGAGGGCAGCUGUCUACAGGCUUCCUAGAGGUCACAUGCAGGACUGGGGUG | 1.57 |
| AGUGCAUUGGGCCUGAAUCUCUGAACACUGUAGACCCAUUAGAAGGAAGAUUGUUCUGACCGUCACAAAUUGUAGUGCCUGAAAACACUUAACACUGAUUGUCUAAGAGA | 0.478 |
| CUGAUGUUUGUUUUCGAUGAGGUUCCAUGUUUUGUUUUCUUGGGAAUAAAUUAAUAUAUUGUUUUCCACUUCGGGGAUACUGUGUAUUUUUAUAUGACAAUUGGUUAAAA | 1.21 |

Some of these lines once more (set 4):
| Oligonucleotide | log2 enrichment |
| --- | --- |
| AGUCCUGUGCUACACAUCGUAUGUACCGAAUCGGUUUGGAAAAAAAGGAAAAAAAGGAAAGUAUUAUGUUACGCCGUUCGGAUCUGCACU | -2.15 |
| UCAAGUCCUGUGCUACACAUCGUAUGUACCGAAUCGGGAGGGAAAAAGGGUGGGAAAGUAUUAUGUUACGCCGUUCGGAUCUGCACUUCC | -1.28 |
| UCUAUUCAUAAGAACCCCAACACAUCGGAGCCCCAACACCUGUUGGUGAUGAAGGGCGCCCCAGAAAGGAUCCUAGACCGUUGCAGCUCU | 2.06 |
| UCCUGUGCUACACAUCGUAUGUACCGAAUCGGGAAAAAAGGGGAAAAAAGGGAAAAAAGGAAAGUAUUAUGUUACGCCGUUCGGAUCUGC | -0.354 |
| AAGUCCUGUGCUACACAUCGUAUGUACCGAAUCGGUUUGGAAAAAAAGGUUUUUGGAAAGUAUUAUGUUACGCCGUUCGGAUCUGCACUU | -3.04 |
| CCUGUGCUACACAUCGUAUGUACCGAAUCGGGCCCCCCCGGCCCCCCCGGGCCCCCCCGGGAAAGUAUUAUGUUACGCCGUUCGGAUCUG | 0.752 |
